Measured values gathered from unrelated publications.
Lines come from different studies, so protocols differ. ± marks the error that the study gave.
RAD52: DNA repair protein RAD52 homolog (RAD52, Homo sapiens, UniProt P43351)
DRD3: D(3) dopamine receptor (DRD3, Homo sapiens, UniProt P35462)
Ugcg: Ceramide glucosyltransferase (Ugcg, Mus musculus, UniProt O88693)
APLNR: Apelin receptor (APLNR, Homo sapiens, UniProt P35414)
AURKA: Aurora kinase A (AURKA, Homo sapiens, UniProt O14965)

Structure (SMILES)	target or system	test	test system	conditions	endpoint	value
CCCCN(CC)CCCNC(=S)Nc1ccc2nc(N3CCN(C)CC3)cc(C)c2c1	RAD52	D-loop formation		with: RAD52 450 nM	IC50	14800 ± 2470 nM
COc1ccc(O)cc1-c1c[nH]c2ncc(-c3cncc(C(=O)N(C)C)c3)cc12	ABL1 (Homo sapiens, UniProt P00519)	kinase activity, inhibitor, HTRF		1 h preincubation, with: ATP 20 µM	IC50	1.2 ± 0.1 nM
COc1ccc(OC)c(Nc2nc(NCCO)c3ccccc3n2)c1	RAD52	D-loop formation		with: RAD52 450 nM	IC50	8800 ± 420 nM
CC(C)(C)c1ccc(NC(=O)c2cnn(-c3ccc([N+](=O)[O-])cc3)c2C(F)(F)F)cc1	PTGS2 (Homo sapiens, UniProt P35354)	enzyme activity, inhibitor			IC50	9030 nM
Cc1cccc(NS(=O)(=O)c2c(C)[nH]c(C)c2C(=O)N2CCCC2)c1	DRD3	β-arrestin recruitment, antagonist, PathHunter		with: dopamine EC80	IC50	> 100000 nM
COc1ccccc1Nc1nc(NCCCO)c2ccccc2n1	RAD52	ssDNA annealing, fluorescence quenching			IC50	2900 nM
OC[C@@H]1[C@@H](O)[C@H](O)[C@@H](O)CN1CCCCCOCc1ccc(-c2ccccc2)c(F)c1	Ugcg	enzyme activity, inhibitor, fluorescence			IC50	25 nM
Cc1cc(-c2ccc(S(=O)(=O)C3CC(C(=O)NC4(C#N)CC4)N(C(=O)C4(C(F)(F)F)CC4)C3)c(C(F)(F)F)c2)ccn1 (centres unmarked)	Calpain-2 catalytic subunit (Homo sapiens, UniProt P17655)				IC50	> 10000 nM
Cc1ccc(NS(=O)(=O)c2c(C)[nH]c(C)c2C(=O)N2CCCCC2)cc1Cl	DRD3	β-arrestin recruitment, antagonist			IC50	34000 nM
CC(C)C[C@H](NC(=O)[C@H](CC(=O)O)NC(=O)[C@H](C)N)C(=O)N1CCC[C@H]1C(=O)N[C@@H](Cc1ccccc1)C(=O)N[C@@H](CCC(=O)O)C(=O)N[C@@H](C)C(N)=O	Transcriptional regulator PlcR (Bacillus thuringiensis, UniProt A0ACM8Q0N2)	reporter gene, inhibitor, lacZ reporter	407 Cry−		IC50	1640 ± 102 nM
O=C(Nc1cccc(CSc2ncccn2)c1)c1ccc([N+](=O)[O-])cc1	APLNR	β-arrestin recruitment, antagonist			IC50	> 100000 nM
O=C(Nc1ccc([C@H]2[C@@H](F)[C@@H](F)C[C@@H](F)[C@H]2F)cc1)C1CC1(F)F (some centres unmarked)		liver microsome stability	human liver microsomes	1 µM, without NADPH	hepatic clearance	4.7 mL/min/kg
Fc1ccc(Nc2nc(NC3CCCCC3)c3cc(C(F)(F)F)ccc3n2)cc1F	ADRB2 (Homo sapiens, UniProt P07550, C125V)	β-arrestin2 recruitment, antagonist, BRET	HEK293	mutant C125V, with: isoprenaline 1 µM	IC50	200 nM
N#CCNC(=O)c1ccc([C@H]2[C@@H](F)[C@@H](F)C[C@@H](F)[C@H]2F)cc1		liver microsome stability	human liver microsomes	1 µM, without NADPH	hepatic clearance	3.9 mL/min/kg
C=CC(=O)Nc1cc(Nc2nccc(Nc3cc(Cl)c(F)cc3C(C)(C)O)n2)c(OC)cc1N1CC[C@H](N(C)C)C1	EGFR (Homo sapiens, UniProt P00533)	EGFR phosphorylation, inhibitor	A-431		IC50	362 nM
OC[C@@H]1[C@@H](O)[C@H](O)[C@@H](O)CN1CCCCCOCc1ccc(-c2ccccc2)cc1F	Ugcg	enzyme activity, inhibitor, fluorescence			IC50	25 nM
CCN(CC)CC(=O)Nc1cccc(-n2cc(-c3ccc4ccc(-c5cn(-c6cccc(NC(=O)CN(CC)CC)c6)nn5)cc4c3)nn2)c1	AURKA	enzyme activity, inhibitor			IC50	> 10000 nM
Cc1c(Cl)cccc1Nc1ccccc1C(=O)O	ALDH1B1 (Homo sapiens, UniProt P30837)	enzyme activity, inhibitor			IC50	64300 nM
OC[C@@H]1[C@@H](O)[C@H](O)[C@@H](O)CN1CCCCCOCc1ccc(-c2ccccc2)cn1	Ugcg	enzyme activity, inhibitor, fluorescence			IC50	200 nM
Cc1cc(C)nc(NC(=S)N2CCN(Cc3ccc(C(F)(F)F)cc3)CC2)c1	GPD1 (Homo sapiens, UniProt P21695)	enzyme activity, inhibitor			IC50	> 100000 nM
CC1(C)C(=O)N=C2C1=C(O)C(=O)c1ccccc12	PRMT3 (Homo sapiens, UniProt O60678)	enzyme activity, inhibitor			IC50	1100 nM
COc1cc(OC(=O)c2ccc([N+](=O)[O-])cc2)ccc1OC(=O)c1ccc([N+](=O)[O-])cc1	APLNR	β-arrestin recruitment, antagonist			IC50	> 100000 nM

Structure (SMILES)	target or system	test	test system	conditions	endpoint	value
OC[C@@H]1[C@@H](O)[C@H](O)[C@@H](O)CN1CCCC(F)(F)COCc1ccc(-c2ccccc2)cc1	Ugcg	enzyme activity, inhibitor, fluorescence			IC50	60 nM
COc1cc(N2CCOCC2)ccc1Nc1ncc(Cl)c(Nc2ccccc2NS(C)(=O)=O)n1	EGFR (Homo sapiens, UniProt P00533, C797S/del746-750/T790M)	kinase activity, inhibitor			IC50	1.66 nM
Cc1cc(NC2CCN(C)CC2)ccc1-c1cc2c(N3CCC[C@H](C(=O)NCc4ccc(OC(F)(F)F)cc4)C3)ncnc2[nH]1	AURKA	enzyme activity, inhibitor, mobility shift			IC50	1480 nM
COCC1CN(C2CCN(c3cc(OC)c(Nc4ncc(Br)c(Nc5ccc6c(c5P(C)(C)=O)OCCO6)n4)cc3C)CC2)C1	EGFR (Homo sapiens, UniProt P00533, C797S/L858R)	enzyme activity, inhibitor, TR-FRET			IC50	0.92 nM
OC[C@@H]1[C@@H](O)[C@H](O)[C@@H](O)CN1CCCCCOCc1cccc(-c2ccccc2)c1	Ugcg	enzyme activity, inhibitor, fluorescence			IC50	75 nM
Cc1nn(-c2cccc(N)c2)c(=O)c2cnc(Nc3ccc(N4CCNCC4)cc3)nc12	PRKD3 (Homo sapiens, UniProt O94806)	enzyme activity, inhibitor			IC50	> 10000 nM
OC[C@@H]1[C@@H](O)[C@H](O)[C@@H](O)CN1CCCCCOCC1CC1	Ugcg	enzyme activity, inhibitor	RAW264.7	in situ, with: C6-NBD-ceramide	IC50	7200 nM
O=C(COC(=O)c1cc(O)c2ccoc2c1)NC(c1ccccc1)c1ccc(Cl)cc1 (centres unmarked)	PLA2G4A (Homo sapiens, UniProt P47712)	enzyme activity, inhibitor, fluorescence			IC50	4430 nM
N#C[C@@H]1CC(F)(F)CN1C(=O)CNC(=O)c1ccnc2ccc(OCCCN3CCN(C(=S)Nc4ccc(C[C@H]5CN(CC(N)=O)CCN(CC(N)=O)CCN(CC(N)=O)CCN5CC(N)=O)cc4)CC3)cc12	FAP (Homo sapiens, UniProt Q12884)	enzyme activity, inhibitor, fluorescence			IC50	11.9 nM
OC[C@@H]1[C@@H](O)[C@H](O)[C@@H](O)c2nccn21	sweet almond β-glucosidase	inhibitor		30 min, pH 6.8, with: p-nitrophenyl β-D-glucopyranoside	IC50	65 nM
Cc1ccc(Nc2cc(NC3CC3)n3ncc(C#N)c3n2)cc1NC(=O)C1CC1	CSNK2A2 (Homo sapiens, UniProt P19784)	inhibitor			IC50	120 nM
CC(=O)OC[C@H](COc1ccc(C(C)(C)c2ccc(OC[C@@H](CCl)OC(C)=O)cc2)cc1)OC(C)=O	Androgen receptor (AR, Homo sapiens, UniProt P10275)	antagonist, nuclear translocation		top concentration 10 µM	IC50	> 10000 nM
CCn1nc(Cl)c2c1-c1cnc(N)c(c1)O[C@H](C)c1cc(F)ccc1-c1nn(C)cc1C2	ALK (Homo sapiens, UniProt Q9UM73)	enzyme activity, inhibitor		with: ATP 1 mM	IC50	0.9 nM
COc1ccc(Nc2cc(NC3CC3)n3ncc(C#N)c3n2)cc1	DAPK3 (Homo sapiens, UniProt O43293)	inhibitor			IC50	> 10000 nM
C=CC(=O)Nc1cc(Nc2ncnc(Nc3ccccc3C(F)(F)F)n2)c(OC)cc1N(C)CCN(C)C	EGFR (Homo sapiens, UniProt P00533, L858R/T790M)	enzyme activity, inhibitor			IC50	13 nM
Nc1ncc2c(n1)-c1c([nH]c3ccc(C4=CCOCC4)cc13)CCC2	CLK2 (Homo sapiens, UniProt P49760)	target engagement in cells, BRET			IC50	3200 nM
Cc1cc(N2CCN(C)CC2)nc2ccc(NC(=S)NCCCN3CCN(C)CC3)cc12	RAD52	ssDNA annealing, fluorescence quenching			IC50	3600 nM
OC[C@@H]1[C@@H](O)[C@H](O)[C@@H](O)CN1CCCCCOCc1ccc2ccccc2c1	Ugcg	enzyme activity, inhibitor, fluorescence			IC50	3 nM
Cc1[nH]nc2c1N=C(c1ccccc1Cl)c1cnc(N3CCOCC3)cc1N2	Cytochrome P450 2B6 (CYP2B6, Homo sapiens, UniProt P20813)	enzyme activity, inhibitor	human, liver microsomes		IC50	> 10000 nM
OC[C@H]1[C@@H](O)[C@H](O)[C@@H](O)CN1CCCCCOCC(COCCCCCN1C[C@H](O)[C@@H](O)[C@H](O)[C@@H]1CO)C12CC3CC(CC(C3)C1)C2 (some centres unmarked)	Ugcg	enzyme activity, inhibitor, fluorescence			IC50	10000 nM
CCCN(CCC)CCCNC(=S)Nc1ccc2nc(N3CCN(C)CC3)cc(C)c2c1	RAD52	ssDNA annealing, fluorescence quenching			IC50	6000 nM
CCCOC(=O)N1c2cc(CNC)ccc2[C@H](NC(=O)C(=O)Nc2ccc(Cl)c(F)c2)[C@H]1CNC(=N)N	env (Human immunodeficiency virus 1, UniProt Q2N0S5)	HIV-1 infection	Cf2Th-CD4/CCR5 cells	48 h	IC50	46700 nM

A few entries again:
Structure (SMILES)	target or system	test	test system	conditions	endpoint	value
CCCCN(CC)CCCNC(=S)Nc1ccc2nc(N3CCN(C)CC3)cc(C)c2c1	RAD52	D-loop formation		with: RAD52 450 nM	IC50	14800 ± 2470 nM
CCn1nc(Cl)c2c1-c1cnc(N)c(c1)O[C@H](C)c1cc(F)ccc1-c1nn(C)cc1C2	ALK (Homo sapiens, UniProt Q9UM73)	enzyme activity, inhibitor		with: ATP 1 mM	IC50	0.9 nM
COc1ccc(OC)c(Nc2nc(NCCO)c3ccccc3n2)c1	RAD52	D-loop formation		with: RAD52 450 nM	IC50	8800 ± 420 nM
